Published values pooled from the literature.
Numbered parts are unrelated; each lists some results of a single study. Substitutions count along the parent as printed.

Sample 1
Target: CCNB2, cyclin fold, Cln2 fusion (human)
Technique: yeast growth competition, sequencing
Sample: yeast
Notes: weak parent motif
Baseline: not given
Reading: higher = stronger binding
Parent: CDC42EP1 docking peptide (human); SLVVGKLSFDSSP; partner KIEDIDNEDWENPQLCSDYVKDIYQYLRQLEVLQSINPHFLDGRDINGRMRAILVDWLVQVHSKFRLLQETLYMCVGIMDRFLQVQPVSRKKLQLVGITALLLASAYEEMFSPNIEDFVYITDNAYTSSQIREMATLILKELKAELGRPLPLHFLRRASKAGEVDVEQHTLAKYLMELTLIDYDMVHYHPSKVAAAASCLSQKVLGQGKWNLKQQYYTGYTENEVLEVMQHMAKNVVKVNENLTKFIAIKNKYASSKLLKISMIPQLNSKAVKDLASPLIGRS
Under “normalised enrichment score”, `S8A` is recorded as -0.516.
For `V4A`, “normalised enrichment score” read -0.489.
`S12A` — result for “normalised enrichment score”: -0.00863.
`K6A` — result for “normalised enrichment score”: -0.9.
`S11A`: “normalised enrichment score” -0.596.
`L2A`: “normalised enrichment score” -0.324.
`P13A`: “normalised enrichment score” -0.223.

Sample 2
Target: Sal-like protein 4, full length isoform B (SALL4, Homo sapiens, UniProt Q9UJQ4-2, residues 1-616)
Technique: universal PBM
Molecule type: double-stranded DNA, one strand shown
Sample: in vitro
Concentration: not given
Notes: 8-mer, flanks averaged, mean of replicates
Reading: higher = stronger binding
For `TACTTCAA`, the E-score was 0.181.
`AGGTGAGC` gave an E-score of -0.136.
For `CAGAGCAC`, the E-score was -0.312.
For `GTGCGTTA`, the E-score was 0.2.
`TAAGGCCA` gave an E-score of -0.087.
`CACAAATG` gave an E-score of 0.23.
`AAATAAGC` has an E-score of 0.264.
For `CAAACCGA`, the E-score was -0.105.
`ACACGTAC` has an E-score of 0.0789.
`AGCGTCAG` gave an E-score of -0.0206.
For `CAGTTCAG`, the E-score was -0.143.
`CTCTTCAA` has an E-score of -0.0546.
The E-score of `CATACTTC` is reported as 0.154.
The E-score of `CGCTGATC` is reported as -0.189.
The E-score of `AACCAACG` is reported as -0.054.
The E-score of `CAACAGTA` is reported as -0.0371.
`AACTAGCG` gave an E-score of -0.0659.
`AAAGCCAC` gave an E-score of 5e-05.
With `CGCGACTA` the E-score was -0.121.
The E-score of `AGGGGCCA` is reported as -0.386.
`ACATCGAG` has an E-score of -0.0524.
`CCACCCCC` gave an E-score of -0.202.
The E-score of `CGTGATGA` is reported as 0.0266.
With `GGCAGTTA` the E-score was 0.0165.
With `GCTATTAA` the E-score was 0.177.

Sample 3
Target: Ras GTPase-activating protein-binding protein 1, C-terminal RGG region (G3BP1, Homo sapiens, UniProt Q13283)
UniProt Q13283, sequence (whole entry, looked up): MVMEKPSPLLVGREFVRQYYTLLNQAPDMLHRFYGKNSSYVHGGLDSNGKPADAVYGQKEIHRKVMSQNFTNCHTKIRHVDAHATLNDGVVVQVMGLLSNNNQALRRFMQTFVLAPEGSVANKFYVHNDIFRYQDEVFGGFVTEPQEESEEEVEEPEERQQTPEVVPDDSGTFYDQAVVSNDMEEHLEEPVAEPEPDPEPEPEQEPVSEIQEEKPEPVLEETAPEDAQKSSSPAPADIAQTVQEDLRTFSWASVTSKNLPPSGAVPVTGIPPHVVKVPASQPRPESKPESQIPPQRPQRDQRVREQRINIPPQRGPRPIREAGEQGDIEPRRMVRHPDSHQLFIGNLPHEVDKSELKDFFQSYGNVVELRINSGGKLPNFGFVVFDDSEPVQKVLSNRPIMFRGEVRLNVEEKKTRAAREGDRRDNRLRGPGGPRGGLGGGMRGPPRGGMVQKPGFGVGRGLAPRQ
Technique: RNA Bind-n-Seq
Molecule type: RNA
Sample: in vitro
Concentration: 1 µM
Notes: whole 134-nt RNA, ends assumed
Added: 150 mM KCl
Baseline: input library
Reading: higher = stronger binding
`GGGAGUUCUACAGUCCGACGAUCCCUGUGCUACACAUCGUAUGUACCGAAUCGGGGCCCCCCGGGCCCCCCGGGGCCCCCCGGGAAAGUAUUAUGUUACGCCGUUCGGAUCUGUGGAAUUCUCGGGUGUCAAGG` has a log2 enrichment of -1.94.
The log2 enrichment of `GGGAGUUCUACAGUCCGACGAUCUGUGCUACACAUCGUAUGUACCGAAUCGGGGCCCCCCCGGGCCCCCCCGGGGCCCCCCCGGGGAAAGUAUUAUGUUACGCCGUUCGGAUCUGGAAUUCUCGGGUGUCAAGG` is reported as -2.69.
With `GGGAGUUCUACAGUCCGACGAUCUCCUGUGCUACACAUCGUAUGUACCGAAUCGGGUUUUUGGGAAAAAGGGUUUUUUUGGGAAAGUAUUAUGUUACGCCGUUCGGAUCUGCAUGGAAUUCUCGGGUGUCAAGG` the log2 enrichment was -0.521.
With `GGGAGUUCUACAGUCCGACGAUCUCAAGUCCUGUGCUACACAUCGUAUGUACCGAAUCGGGGAGGGGUGGGGUGGGGAAAGUAUUAUGUUACGCCGUUCGGAUCUGCACUUCCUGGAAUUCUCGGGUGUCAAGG` the log2 enrichment was 3.3.
With `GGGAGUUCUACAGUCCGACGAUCUAGCCCUGGUGGCAUGCGGGGAGGAAGAGGUGGCCUCAUGGAUCGUGGUGGUCCCGGUGGAAUGUUCAGAGGUGGCCGUGGUGGAGACAGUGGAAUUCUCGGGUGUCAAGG` the log2 enrichment was 2.26.
The log2 enrichment of `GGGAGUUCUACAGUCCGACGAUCCACAGCCAACACGCACCCACACAGACACAGAGGGAAGGGGUUGGGAUGGGGACAGGGUGCACAGCAGGGCGGGGUAGGACCCCAGCCCCUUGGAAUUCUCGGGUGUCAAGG` is reported as -0.116.
For `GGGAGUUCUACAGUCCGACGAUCCACAGACAACACGCACCCACACAGACACAGAGGGAAGGGGUUGGGAUGGGGACAGGGAGCACAGCAGGGCGGGGUAGGACCCCAGCCCCUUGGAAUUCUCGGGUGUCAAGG`, the log2 enrichment was -0.746.
`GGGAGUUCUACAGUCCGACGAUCUGGGAGGUGGAUUUUGUUUAUUUUUUUAGCUCAUUUCCAGGGGUGGGAAUUUUUUUUUAAUAUGUGUUAUGAAUAAAGUUGUUUUUGAAAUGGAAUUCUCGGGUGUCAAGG` gave a log2 enrichment of 3.19.
`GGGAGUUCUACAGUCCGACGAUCCCUGUGCUACACAUCGUAUGUACCGAAUCGGGGCCCCCCGGCCCCCCGGGGCCCCCCGGGAAAGUAUUAUGUUACGCCGUUCGGAUCUGCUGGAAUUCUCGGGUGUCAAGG` gave a log2 enrichment of -1.45.
For `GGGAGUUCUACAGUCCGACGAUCUCCUGUGCUACACAUCGUAUGUACCGAAUCGGGGUUUUUUUGGGGUGGGGAAAAAGGGGAAAGUAUUAUGUUACGCCGUUCGGAUCUGCAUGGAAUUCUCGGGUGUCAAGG`, the log2 enrichment was 1.29.

Sample 4
Target: ABI1, truncated, D143A, DHFR fusion (Arabidopsis thaliana)
Technique: DHFR PCA, deep sequencing
Sample: yeast
Notes: methotrexate growth selection, single substitutions
Added: (+)-ABA 4.8 µM
Baseline: wild-type fitted maximum
Reading: higher = stronger binding
Parent: PYL1, truncated, DHFR fusion (Arabidopsis thaliana); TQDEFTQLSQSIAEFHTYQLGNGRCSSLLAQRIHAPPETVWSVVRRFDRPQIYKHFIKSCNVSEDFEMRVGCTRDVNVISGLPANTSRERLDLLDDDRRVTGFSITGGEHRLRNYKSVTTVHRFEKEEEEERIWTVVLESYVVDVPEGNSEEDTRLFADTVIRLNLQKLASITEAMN
For `E130I`, “relative binding score” read 66.5%.
Under “relative binding score”, `A158Y` is recorded as 1.92%.
`V137C`: “relative binding score” 3.79%.
For `E129G`, “relative binding score” read 91.1%.
Under “relative binding score”, `Y115Q` is recorded as -7.28%.
Under “relative binding score”, `R113C` is recorded as 56.1%.
`V76P` — result for “relative binding score”: -0.692%.
`T119F`: “relative binding score” -7.48%.
Under “relative binding score”, `R32E` is recorded as 70.4%.
Under “relative binding score”, `N114Y` is recorded as 10.9%.
For `E38V`, “relative binding score” read 3.66%.
For `P83G`, “relative binding score” read 33.9%.
For `E125P`, “relative binding score” read 81.9%.
Under “relative binding score”, `D96W` is recorded as -7.96%.
Under “relative binding score”, `K126S` is recorded as 92.4%.
`K58H` — result for “relative binding score”: 55.5%.
Under “relative binding score”, `N61W` is recorded as 62.9%.
For `S11Q`, “relative binding score” read 84.1%.
`I105E` — result for “relative binding score”: -22.2%.
`V142G` — result for “relative binding score”: 15.4%.
`R88H`: “relative binding score” 79.6%.
For `E4P`, “relative binding score” read 63.4%.
`H122P` — result for “relative binding score”: 3.51%.
Under “relative binding score”, `P36T` is recorded as 66%.

Sample 5
Target: CRIPT, C-terminal peptide
Technique: DHFR complementation, deep sequencing
Sample: yeast
Notes: single substitutions, model-inferred values
Baseline: wild type
Reading: higher = weaker binding
Parent: ERBIN, PDZ domain 1 (human); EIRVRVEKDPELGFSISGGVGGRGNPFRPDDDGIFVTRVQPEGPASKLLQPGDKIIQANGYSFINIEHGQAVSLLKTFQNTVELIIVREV; partner TKNYKQTSV
`S73D`: “binding free energy change” -0.00852 kcal/mol.
For `I66C`, “binding free energy change” read 0.171 kcal/mol.
For `I55F`, “binding free energy change” read 0.725 kcal/mol.
For `K76E`, “binding free energy change” read 1.02 kcal/mol.
Under “binding free energy change”, `A45S` is recorded as -0.634 kcal/mol.
Under “binding free energy change”, `S15W` is recorded as 0.197 kcal/mol.
For `F63E`, “binding free energy change” read 1.18 kcal/mol.
`I66M`: “binding free energy change” 0.152 kcal/mol.
`N80P`: “binding free energy change” 0.247 kcal/mol.
`F63P`: “binding free energy change” 0.458 kcal/mol.
For `L74E`, “binding free energy change” read 0.287 kcal/mol.
`I85A` — result for “binding free energy change”: -0.000269 kcal/mol.
`R28P` — result for “binding free energy change”: 1.33 kcal/mol.
For `V6H`, “binding free energy change” read 0.606 kcal/mol.
`G13L` — result for “binding free energy change”: 0.898 kcal/mol.
`I34F`: “binding free energy change” 0.709 kcal/mol.

Other studies, line by line
With `PhoQ, residues 284 288 289 292 302 303 SVTLVV` the fold induction was 0.978 (PhoP, residues 12 14 15 18 19 NQAHL (Escherichia coli, UniProt P23836); Sort-seq, refers to: YFP reporter; E. coli; PhoQ-PhoP variant library, added: 10 µM Mg2+; baseline: high Mg2+ state, higher = stronger signaling).

For quick reference, copied from above (sample 4):
Under “relative binding score”, `A158Y` is recorded as 1.92%.
`V137C`: “relative binding score” 3.79%.
For `E129G`, “relative binding score” read 91.1%.
Under “relative binding score”, `Y115Q` is recorded as -7.28%.
Under “relative binding score”, `R113C` is recorded as 56.1%.
`V76P` — result for “relative binding score”: -0.692%.
`T119F`: “relative binding score” -7.48%.
Under “relative binding score”, `R32E` is recorded as 70.4%.
Under “relative binding score”, `N114Y` is recorded as 10.9%.
